# Measured values collected from several papers.
# Parts stem from different laboratories: compare values within a part only.
# Chain of UniProt O75914 (whole entry, looked up): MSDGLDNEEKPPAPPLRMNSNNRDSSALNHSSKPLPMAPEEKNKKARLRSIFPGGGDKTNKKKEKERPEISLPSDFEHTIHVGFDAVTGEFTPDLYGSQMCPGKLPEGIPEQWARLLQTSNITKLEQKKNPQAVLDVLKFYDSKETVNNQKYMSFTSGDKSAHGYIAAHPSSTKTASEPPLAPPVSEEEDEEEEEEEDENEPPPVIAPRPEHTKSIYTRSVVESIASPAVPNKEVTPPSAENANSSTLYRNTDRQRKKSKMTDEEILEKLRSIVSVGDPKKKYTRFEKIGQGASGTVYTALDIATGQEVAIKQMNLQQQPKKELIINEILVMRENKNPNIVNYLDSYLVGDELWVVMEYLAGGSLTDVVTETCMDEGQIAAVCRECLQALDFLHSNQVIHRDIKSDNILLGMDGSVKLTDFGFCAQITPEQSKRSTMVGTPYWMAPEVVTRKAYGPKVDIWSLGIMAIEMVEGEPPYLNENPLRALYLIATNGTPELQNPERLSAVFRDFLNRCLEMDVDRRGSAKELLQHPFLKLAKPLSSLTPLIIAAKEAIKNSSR
# Chain of UniProt P51813 (whole entry, looked up): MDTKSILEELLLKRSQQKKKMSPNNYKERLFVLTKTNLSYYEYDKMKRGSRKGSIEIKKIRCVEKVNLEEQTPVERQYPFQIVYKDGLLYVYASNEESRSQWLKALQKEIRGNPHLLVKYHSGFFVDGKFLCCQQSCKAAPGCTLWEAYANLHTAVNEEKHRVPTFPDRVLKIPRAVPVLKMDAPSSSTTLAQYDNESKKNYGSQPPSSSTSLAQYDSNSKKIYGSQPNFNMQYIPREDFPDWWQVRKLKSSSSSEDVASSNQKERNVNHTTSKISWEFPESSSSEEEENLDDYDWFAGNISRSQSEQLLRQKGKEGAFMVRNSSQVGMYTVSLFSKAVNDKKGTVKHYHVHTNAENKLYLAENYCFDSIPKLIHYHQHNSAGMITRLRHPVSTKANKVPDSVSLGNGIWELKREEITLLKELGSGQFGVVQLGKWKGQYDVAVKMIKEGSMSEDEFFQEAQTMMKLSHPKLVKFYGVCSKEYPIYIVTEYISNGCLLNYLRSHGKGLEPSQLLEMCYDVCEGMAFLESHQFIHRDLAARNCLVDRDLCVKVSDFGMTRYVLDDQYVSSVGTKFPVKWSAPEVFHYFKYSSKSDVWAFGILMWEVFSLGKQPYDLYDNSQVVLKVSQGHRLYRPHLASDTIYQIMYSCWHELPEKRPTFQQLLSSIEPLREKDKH
# Chain of UniProt O14578 (whole entry, looked up): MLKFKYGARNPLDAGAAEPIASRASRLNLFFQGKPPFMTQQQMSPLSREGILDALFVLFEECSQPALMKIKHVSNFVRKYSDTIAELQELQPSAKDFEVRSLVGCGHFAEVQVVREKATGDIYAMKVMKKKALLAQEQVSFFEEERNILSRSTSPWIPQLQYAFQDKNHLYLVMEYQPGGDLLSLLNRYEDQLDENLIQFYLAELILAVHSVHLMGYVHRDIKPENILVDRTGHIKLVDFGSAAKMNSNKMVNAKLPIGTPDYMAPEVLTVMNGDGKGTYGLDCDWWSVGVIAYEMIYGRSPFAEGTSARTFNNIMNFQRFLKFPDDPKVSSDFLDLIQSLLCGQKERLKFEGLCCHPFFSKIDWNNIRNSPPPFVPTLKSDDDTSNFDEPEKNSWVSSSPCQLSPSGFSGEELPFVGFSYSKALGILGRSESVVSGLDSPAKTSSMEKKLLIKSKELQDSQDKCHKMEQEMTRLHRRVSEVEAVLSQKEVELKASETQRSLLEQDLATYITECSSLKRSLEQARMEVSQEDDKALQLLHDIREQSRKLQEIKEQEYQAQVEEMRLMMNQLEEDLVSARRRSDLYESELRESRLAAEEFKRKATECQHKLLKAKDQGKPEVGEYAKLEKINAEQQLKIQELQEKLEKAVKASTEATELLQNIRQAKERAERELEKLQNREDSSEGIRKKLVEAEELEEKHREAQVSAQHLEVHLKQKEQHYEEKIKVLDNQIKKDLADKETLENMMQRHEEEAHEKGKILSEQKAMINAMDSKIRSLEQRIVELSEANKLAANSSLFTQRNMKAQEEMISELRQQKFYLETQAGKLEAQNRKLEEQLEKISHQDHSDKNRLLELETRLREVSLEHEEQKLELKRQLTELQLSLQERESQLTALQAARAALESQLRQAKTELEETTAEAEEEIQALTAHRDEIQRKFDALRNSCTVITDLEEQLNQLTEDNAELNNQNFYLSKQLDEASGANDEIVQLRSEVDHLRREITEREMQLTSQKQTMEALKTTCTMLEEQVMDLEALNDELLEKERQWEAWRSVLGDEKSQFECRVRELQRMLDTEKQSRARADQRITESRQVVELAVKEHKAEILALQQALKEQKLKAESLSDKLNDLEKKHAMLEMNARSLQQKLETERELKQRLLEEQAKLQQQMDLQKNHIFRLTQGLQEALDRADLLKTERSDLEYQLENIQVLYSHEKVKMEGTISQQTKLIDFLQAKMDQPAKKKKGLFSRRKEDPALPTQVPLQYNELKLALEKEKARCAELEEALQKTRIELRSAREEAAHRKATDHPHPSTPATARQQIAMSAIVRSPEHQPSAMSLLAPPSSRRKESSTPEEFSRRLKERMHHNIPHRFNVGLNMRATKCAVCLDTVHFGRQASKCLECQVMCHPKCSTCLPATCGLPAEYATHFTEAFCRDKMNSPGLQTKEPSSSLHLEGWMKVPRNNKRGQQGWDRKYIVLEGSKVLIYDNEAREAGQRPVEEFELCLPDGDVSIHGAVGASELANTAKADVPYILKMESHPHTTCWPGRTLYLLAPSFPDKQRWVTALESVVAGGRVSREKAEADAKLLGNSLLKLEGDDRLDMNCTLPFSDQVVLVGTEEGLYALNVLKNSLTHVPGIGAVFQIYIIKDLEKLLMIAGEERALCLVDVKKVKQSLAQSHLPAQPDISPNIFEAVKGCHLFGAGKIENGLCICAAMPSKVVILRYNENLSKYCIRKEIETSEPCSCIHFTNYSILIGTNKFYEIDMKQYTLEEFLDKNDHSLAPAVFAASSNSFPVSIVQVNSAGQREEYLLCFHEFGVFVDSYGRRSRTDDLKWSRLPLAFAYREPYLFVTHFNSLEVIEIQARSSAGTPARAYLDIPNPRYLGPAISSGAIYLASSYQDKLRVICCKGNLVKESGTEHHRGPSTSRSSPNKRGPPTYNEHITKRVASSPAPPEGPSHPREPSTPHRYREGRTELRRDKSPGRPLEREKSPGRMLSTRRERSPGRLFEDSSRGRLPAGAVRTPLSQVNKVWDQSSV
# Chain of UniProt Q9NRH2 (whole entry, looked up): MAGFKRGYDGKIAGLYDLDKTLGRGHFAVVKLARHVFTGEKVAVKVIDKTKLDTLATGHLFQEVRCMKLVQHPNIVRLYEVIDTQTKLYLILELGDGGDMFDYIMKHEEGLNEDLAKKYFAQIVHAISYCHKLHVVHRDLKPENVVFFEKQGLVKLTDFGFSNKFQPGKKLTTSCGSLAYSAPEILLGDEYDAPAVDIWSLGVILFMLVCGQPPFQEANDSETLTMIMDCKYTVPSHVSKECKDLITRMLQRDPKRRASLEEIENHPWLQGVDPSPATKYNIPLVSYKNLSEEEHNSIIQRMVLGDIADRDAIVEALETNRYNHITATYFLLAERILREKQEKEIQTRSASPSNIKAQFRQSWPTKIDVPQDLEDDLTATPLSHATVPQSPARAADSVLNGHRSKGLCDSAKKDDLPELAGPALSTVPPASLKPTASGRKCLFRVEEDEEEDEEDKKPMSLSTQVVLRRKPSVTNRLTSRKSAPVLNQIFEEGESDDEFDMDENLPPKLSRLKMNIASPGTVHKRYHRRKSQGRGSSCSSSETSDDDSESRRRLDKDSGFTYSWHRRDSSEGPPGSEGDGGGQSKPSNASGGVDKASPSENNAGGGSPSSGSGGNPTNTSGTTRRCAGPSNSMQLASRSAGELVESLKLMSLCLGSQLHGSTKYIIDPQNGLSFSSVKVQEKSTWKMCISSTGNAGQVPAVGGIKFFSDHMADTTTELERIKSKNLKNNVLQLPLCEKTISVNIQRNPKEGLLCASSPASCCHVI
# Chain of UniProt Q16566 (whole entry, looked up): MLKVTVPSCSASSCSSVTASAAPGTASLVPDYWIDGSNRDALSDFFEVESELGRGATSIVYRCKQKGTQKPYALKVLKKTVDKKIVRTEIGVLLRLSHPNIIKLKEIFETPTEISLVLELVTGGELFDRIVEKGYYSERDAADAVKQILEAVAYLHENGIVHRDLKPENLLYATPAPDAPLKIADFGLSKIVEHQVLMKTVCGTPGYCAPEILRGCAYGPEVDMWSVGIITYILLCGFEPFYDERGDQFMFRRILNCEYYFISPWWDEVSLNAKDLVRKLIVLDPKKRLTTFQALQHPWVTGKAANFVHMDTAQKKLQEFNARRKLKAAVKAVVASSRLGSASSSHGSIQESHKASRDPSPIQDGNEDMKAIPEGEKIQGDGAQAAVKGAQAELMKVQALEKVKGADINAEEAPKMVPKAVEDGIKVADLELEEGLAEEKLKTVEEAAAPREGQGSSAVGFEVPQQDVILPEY
# Chain of UniProt P42681 (whole entry, looked up): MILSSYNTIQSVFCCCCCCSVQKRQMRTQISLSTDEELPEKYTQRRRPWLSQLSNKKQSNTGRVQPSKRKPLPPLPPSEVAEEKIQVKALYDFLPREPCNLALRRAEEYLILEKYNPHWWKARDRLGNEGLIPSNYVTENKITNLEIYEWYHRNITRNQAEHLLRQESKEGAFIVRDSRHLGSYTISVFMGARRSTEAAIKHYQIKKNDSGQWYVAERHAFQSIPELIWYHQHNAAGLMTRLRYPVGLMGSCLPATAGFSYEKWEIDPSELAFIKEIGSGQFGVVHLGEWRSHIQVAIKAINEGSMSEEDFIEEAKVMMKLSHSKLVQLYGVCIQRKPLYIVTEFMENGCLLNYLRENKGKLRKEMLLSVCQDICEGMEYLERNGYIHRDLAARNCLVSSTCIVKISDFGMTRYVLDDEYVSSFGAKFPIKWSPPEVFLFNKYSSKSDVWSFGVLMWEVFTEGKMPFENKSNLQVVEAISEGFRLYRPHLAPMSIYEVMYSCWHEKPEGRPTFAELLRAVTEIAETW

# Series 1
# Cell line: mouse MPNST tumor cells
# Technique: high-content nuclear imaging
# Measured: cell number
# Tested at: 10 µM
# Time: 12 h
# Notes: mean of 2 replicates
# Relative to: plate mean
# Direction: higher = more cells
SMILES,nuclei count
CNC[C@H](O)c1ccc(O)c(O)c1,0.169 z-score
COc1ccc(C(=O)NCc2cccnc2)cc1C(=O)NCc1cccnc1,1.91 z-score
C[C@@]1(O)[C@H](O)[C@@H](CO)O[C@H]1n1cnc2c(NC3CCCC3)nc(Cl)nc21,-0.079 z-score

# Series 2
# Organism: Sarcocystis neurona
# Read-out: parasite activity
# Tested at: 10 µM
# Time: 96 h
SMILES,activity class
CC(C(O)c1ccc(O)cc1)N1CCC(Cc2ccccc2)CC1 (stereo not drawn),inactive
COC(=O)Nc1nc2ccc(C(=O)c3ccccc3)cc2[nH]1,inactive
CN1CCC(=C2c3ccccc3CC(=O)c3sccc32)CC1,inactive
CCCNC(C)C(=O)Nc1ccccc1C (stereo not drawn),inactive
CC(C)(C)NCC(O)COc1cccc2c1CC(O)C(O)C2 (stereo not drawn),inactive

# Series 3
# Compound: Cn1nc(C(F)(F)F)cc1-c1cnc(N2CCc3cc(S(=O)(=O)Nc4c(F)cc(Cl)cc4F)cc(N4CCCC4=O)c32)nc1
# Read-out: cell-free assay
# Technique: competition with immobilised ligand
# Tested at: 1 µM
target,remaining binding [%]
"Serine/threonine-protein kinase BRSK1 (BRSK1, Homo sapiens, UniProt Q8TDC3)",100
"SNF-related serine/threonine-protein kinase (SNRK, Homo sapiens, UniProt Q9NRH2)",87
"Cytoplasmic tyrosine-protein kinase BMX (BMX, Homo sapiens, UniProt P51813)",81
"Mitogen-activated protein kinase kinase kinase kinase 5 (MAP4K5, Homo sapiens, UniProt Q9Y4K4)",88
"Citron Rho-interacting kinase (CIT, Homo sapiens, UniProt O14578)",100
"Dual specificity tyrosine-phosphorylation-regulated kinase 1A (DYRK1A, Homo sapiens, UniProt Q13627)",93

# Series 4
# Compound: COc1ccc2c(c1)c(C1=C(c3c[nH]c4ccccc34)C(=O)NC1=O)cn2CCCN(C)C
# Read-out: enzyme activity
# Action: inhibitor
# Tested at: 0.5 µM
# Relative to: control
target,remaining activity [%]
"G protein-coupled receptor kinase 4 (GRK4, Homo sapiens, UniProt P32298)",92.8
"Vascular endothelial growth factor receptor 2 (KDR, Homo sapiens, UniProt P35968)",40.7
"Tyrosine-protein kinase TXK (TXK, Homo sapiens, UniProt P42681)",82.8
"Discoidin domain-containing receptor 2 (DDR2, Homo sapiens, UniProt Q16832)",101
"Calcium/calmodulin-dependent protein kinase type IV (CAMK4, Homo sapiens, UniProt Q16566)",90.3
"Calcium/calmodulin-dependent protein kinase type 1B (PNCK, Homo sapiens, UniProt Q6P2M8)",103
"Rho-associated protein kinase 1 (ROCK1, Homo sapiens, UniProt Q13464)",93.5
"Hepatocyte growth factor receptor (MET, Homo sapiens, UniProt P08581)",85.6
"Dual specificity protein kinase CLK4 (CLK4, Homo sapiens, UniProt Q9HAZ1)",32.8
"Serine/threonine-protein kinase PAK 3 (PAK3, Homo sapiens, UniProt O75914)",105
"Serine/threonine-protein kinase MRCK beta (CDC42BPB, Homo sapiens, UniProt Q9Y5S2)",89.4
"Cyclin-dependent kinase 1, with cyclin A (CDK1, Homo sapiens, UniProt P06493)",95.7
"Misshapen-like kinase 1 (MINK1, Homo sapiens, UniProt Q8N4C8)",78.6

# Excerpt of the above (series 1):
SMILES,nuclei count
CNC[C@H](O)c1ccc(O)c(O)c1,0.169 z-score
COc1ccc(C(=O)NCc2cccnc2)cc1C(=O)NCc1cccnc1,1.91 z-score
C[C@@]1(O)[C@H](O)[C@@H](CO)O[C@H]1n1cnc2c(NC3CCCC3)nc(Cl)nc21,-0.079 z-score
